Measurements pooled from the literature.
Numbered parts are unrelated; each lists some results of a single study.

Sample 1 — method: universal PBM; form: double-stranded DNA, one strand shown; matrix: in vitro; tested at: not given; direction: higher = stronger binding; quantity: E-score
Target: Sal-like protein 4, full length isoform B (SALL4, Homo sapiens, UniProt Q9UJQ4-2, residues 1-616)
Notes: 8-mer, flanks averaged, mean of replicates
Target sequence (chain): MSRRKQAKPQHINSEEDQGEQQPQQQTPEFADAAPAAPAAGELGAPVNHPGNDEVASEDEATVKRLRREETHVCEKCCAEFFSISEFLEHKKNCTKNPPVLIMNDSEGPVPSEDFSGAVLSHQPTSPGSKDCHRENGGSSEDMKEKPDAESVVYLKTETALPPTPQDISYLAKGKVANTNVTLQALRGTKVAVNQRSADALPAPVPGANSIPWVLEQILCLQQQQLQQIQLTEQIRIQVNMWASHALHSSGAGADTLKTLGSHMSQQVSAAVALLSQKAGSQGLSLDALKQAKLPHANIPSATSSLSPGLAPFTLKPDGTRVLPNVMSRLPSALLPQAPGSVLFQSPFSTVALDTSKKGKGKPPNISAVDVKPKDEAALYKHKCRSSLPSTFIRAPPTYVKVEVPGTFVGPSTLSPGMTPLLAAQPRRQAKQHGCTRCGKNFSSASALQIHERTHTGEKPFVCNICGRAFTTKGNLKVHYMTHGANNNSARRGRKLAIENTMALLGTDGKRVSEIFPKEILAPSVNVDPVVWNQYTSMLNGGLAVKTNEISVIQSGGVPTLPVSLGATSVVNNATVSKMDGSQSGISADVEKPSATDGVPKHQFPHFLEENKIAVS
CTGTCTAC: -0.0164
AACTCTAG: 0.0604
ATTAGATG: 0.314
ACTCTACC: -0.0226
CCGGACCA: -0.319
CTCCCAGC: -0.259
CAGCAGCG: -0.278
CATTTGAA: 0.152
AGACCCAG: -0.274
CCAAAGAA: 0.0414
CCGTCGTA: -0.00501
GAAAACTC: -0.0696
AGTCGTAA: 0.111
ATAGGGTG: -0.0203
ATGAACCG: -0.0293
CGCCATCA: -0.127
ACTGCGAG: -0.161

Sample 2 — method: protein binding microarray; form: double-stranded DNA, one strand shown; matrix: in vitro; tested at: not given; relative to: not given; direction: higher = stronger binding; quantity: E-score
Target: Histone acetyltransferase KAT6A, winged helix 2, GST fusion (KAT6A, Homo sapiens, UniProt Q92794, residues 85-181)
Notes: 8-mer, flanks averaged, mean of 2 arrays, mostly near background
Construct (chain): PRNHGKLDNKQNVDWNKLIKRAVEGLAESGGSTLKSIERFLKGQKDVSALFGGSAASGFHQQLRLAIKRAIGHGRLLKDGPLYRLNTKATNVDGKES
ATGCGACA: 0.0711
AGTCAAGC: -0.0709
CGACGGTC: -0.121
ACGTGCGG: -0.137
CCTTATAA: 0.0295
GACCATAA: 0.0382
CTTGCATC: -0.0669
AATTACGC: -0.152
ATTAATCC: 0.0808
CAGTCCTC: -0.164
ATATTTCC: -0.0601
TCGTAGAA: -0.0352
GGCTGACC: 0.124
CCTGAGGC: 0.0254
ATGATCAC: 0.0125
ATTCGAAT: -0.0326
CGCTAGTC: -0.101
CTGAAGGC: -0.0347
CCCTAGTA: -0.0985

Sample 3 — method: RNAcompete; form: RNA; matrix: in vitro; tested at: 20 nM; notes: 7-mer, probes averaged, single round; relative to: mean of 7-mers; direction: higher = stronger binding; quantity: 7-mer Z-score
Target: PABPC1L2, full length, GST fusion (mouse, UniProt A0ABA7IW68)
Construct (chain): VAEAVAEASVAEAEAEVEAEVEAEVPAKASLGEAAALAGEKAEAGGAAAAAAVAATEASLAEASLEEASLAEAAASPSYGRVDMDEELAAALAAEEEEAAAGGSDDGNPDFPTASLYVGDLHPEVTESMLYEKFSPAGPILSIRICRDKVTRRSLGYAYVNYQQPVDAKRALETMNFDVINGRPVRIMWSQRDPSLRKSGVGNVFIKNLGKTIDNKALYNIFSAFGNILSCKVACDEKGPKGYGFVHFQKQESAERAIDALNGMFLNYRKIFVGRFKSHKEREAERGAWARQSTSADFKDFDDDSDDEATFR
AAGGAGC: 0.327
AAUGUAC: -0.0663
GUGGUUC: -0.0645
AGCGUUG: -0.101
GUGGUAC: 0.000733
GUCUUCU: -0.463
UCUAUUC: -0.421
GAAGGCC: -0.0264
CCUGGGA: -0.122
UGUACGA: -0.175
GUGUGGU: -0.079
AUUAGCG: -0.05
CGAACAA: 0.582
AGAGCCA: -0.103
UUCGUAA: -0.34
GAACUAA: 0.244
GGCGCGG: 0.0877
UUUGGUA: -0.18
UAGAUCG: -0.144
AAGUUGA: 0.274
UAAACUA: 0.68
AAGCUAU: -0.0573

Sample 4 — method: RNA Bind-n-Seq; form: RNA; matrix: in vitro; tested at: 365 nM; relative to: no-protein control; direction: higher = stronger binding; quantity: RBNS enrichment (R)
Target: RNA binding protein fox-1 homolog 2, RRM domain, GST-SBP tag (RBFOX2, Homo sapiens, UniProt O43251-10, residues 100-194)
Notes: natural RNA segment, single round, ends assumed
Constant ends, left off below: GGGAGUUCUACAGUCCGACGAUC … UGGAAUUCUCGGGUGCCAA
Residues (chain): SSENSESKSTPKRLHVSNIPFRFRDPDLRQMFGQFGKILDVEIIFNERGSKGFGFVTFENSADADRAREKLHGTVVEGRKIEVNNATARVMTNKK
UCUUCUUGUUUUAAGUUUCUUGGACUUCUGACAAACUUCCCUGGAGAAGUGUUCAUUUUUGUUUUCUUCAUGUAGCUUGUAGAUCAUAAUAAGUAUUUGCUCUUAAAAUU: 0.948
CAGAAAUUAUUUUUUGCACUUUGGCAUAAAUACUUUUCAAUAUCUGAUUUGUUCUCUGGAUAAAUUAGCAUAGUUAUUUUUUUAUUCACAUUUACAUUUCUAAGUAGUUG: 0.811
CUGCUGCACCAACCCAGCCGCUGCCCGGCGCCCUCUGUCCUGACUUCAGGGGCUGCCCGCUCCCAGUGUCUUCCUGUGGGGGAAGAGCACAGCCCUCCCGCCCCUUCCCC: 0.913
AUUGAAACUGUUGGUGGUGAUGGAUUUUGUAGCUUGCUGCUUGUUUCACCACUGGUCAAAUUUUAACCAUUAAAUUGCCAUUCACUUUUAGAAUCUUGUAUUUAAGUUUU: 0.983
GAGUGAGAUGGAGCUGGUCUUUGCAGAAGAGAAAUACAACAAAUCAGGUCAACUGGAUAAGAUUGUAGAACUCAUGACAGGCGGAGCUCAAACCCCAGUCACCAAUGCAA: 0.479
UUGCUAAAGACGAGAGAGAAACCACGUGAAACCUACAUUGCUAUGUUCAUAAUUGCCAAAGCAGUAUUUAUACUAUUGUAAACAACUCGCACAUCUCUCCUGUCUGUUAG: 0.357
GCAAGAGGAUUAUGGCUAACAAGAAUAAAUACAUGGGAAGAGUGCUCCCCAUUGAUUGAAGAGUCACUGUCUGAAAGAAGCAAAGUUCAGUUUCAGCAACAAACAAACUU: 1.98
AAAAUUGUAUAUAUUUUUACAGAAAGUCUAUUUCUUUGAAACGAAGGAAGUAUCGAAUUUACAUUAGUUUUUUUCAUACCCUUUUGAACUUUGCAACUUCCGUAAUUAGG: 0.379

Sample 5 — method: RNA Bind-n-Seq; form: RNA; matrix: in vitro; tested at: not given; notes: RNA with constant flanks, ends assumed; relative to: input RNA pool; direction: higher = stronger binding; quantity: bound/input enrichment
Target: RING finger protein unkempt homolog, zinc fingers 1-6, GST-SBP tag (UNK, Homo sapiens, UniProt Q9C0B0, residues 30-357)
Constant ends, left off below: GGGAGUUCUACAGUCCGACGAUC … CAACAGAGGAUUGAGCAUCA
Construct (chain): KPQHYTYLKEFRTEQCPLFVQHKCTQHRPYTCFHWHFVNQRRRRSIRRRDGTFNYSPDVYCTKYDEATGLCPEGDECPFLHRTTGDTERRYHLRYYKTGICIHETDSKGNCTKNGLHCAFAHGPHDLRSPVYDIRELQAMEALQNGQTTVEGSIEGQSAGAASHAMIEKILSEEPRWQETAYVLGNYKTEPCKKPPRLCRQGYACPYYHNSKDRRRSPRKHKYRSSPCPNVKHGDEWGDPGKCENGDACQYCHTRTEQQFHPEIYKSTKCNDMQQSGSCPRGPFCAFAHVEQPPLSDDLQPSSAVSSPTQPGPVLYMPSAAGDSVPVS
UUCAUGGAAAUGAGUGUUGAGCAGGAAAUUCUGGUGACUGGUAUCAAGGUUGUCGAUCUGCCCGCUCCCUAUGCCAAGGGUGGCAAAAUUGGGCUUUUUGGUGGUGCUGGAGUUGGCAAG: 0.386 ratio
GUCAUACAUAUUAAUGACCUGACAGUUAACAUUCUGUUGUUUAUUAUUGCCUUUCUCCACCUCCGAGAGCCAUAAAUAACUCUCUGGUGAAGUGAUUUGCUAUAAUGGGGGUGAGGAGUG: 0.43 ratio
UUCUAGCAGAGGCAAGAAUACAUAUUCAUAUACGCUUACUUAUGAAUUACCAUUUUAACAUUCCGAUAACAUGAAAUAUGGCCCUCUUGAAUUCUUGCUUUUAAGUUCCUUUUGAUAUGU: 0.474 ratio
AGCCUGGGCAUUUCUGCAUUUGUGCCAGCUAACACUACAAAAUAGACUUAAUUAGAGAAAUUCCGACCCAGAAUUGCAGCUUCAACAACACAAAACAGGAAAGCUAGAAGAGGUUGCUGU: 5.97 ratio
UCCCCCUUUGAUCAAAUGAAGACUGCCUCCAAUAUAGGUGGAUUUAAUGCAGCAAUUAAAAACCGUCCACCUGCCAUGUCUCAGUAUAUCACUGUAGGGUCCAAUCCAUUUACUGGCUUC: 0.584 ratio
AUAGAAGCAGCGCCUGAGUCCCAGAUGAUGCCCGCCAGCGUCCUAACGGGCAAUGUCAUCACCGAGACAAAGUUCUUUGACGAUGAUCUUCUUGUCAGCACAUCCAAAGUGAGGCUUUUC: 0.0724 ratio
GAAAUGGUUCCAGAAAAACGAGCCUCAGCUGGCGAAUGCCUUCGGCAUCCUUGGUUGAAUUCUCCGCAAAUUCUACCAAUAUUGCAUUCUGAGCUAGCAAAUGUUCCCAGUACAUUGGAC: 0.164 ratio
UACUGCUGGUCCUGUACCAGAAACAUUUUCUUUUAUUGUUACUUGCUUUUUAAACUUUGUUCCGCCACUUAAAAUCUGCUUAUGGCACAAUUUGCCUCAAAAUCCAUUCCAAGUUGUAUA: 1.32 ratio

Some of these lines once more (sample 1):
CATTTGAA: 0.152
ATTAGATG: 0.314
ATAGGGTG: -0.0203
CCGTCGTA: -0.00501
GAAAACTC: -0.0696
AACTCTAG: 0.0604
CTGTCTAC: -0.0164
